Measured values collected from several papers.
Compare with care: the assays were run in different laboratories. Values joined by “and” are separate records of one study, mostly repeats; a detail may differ. Numbers after ± are the reported error.

Structure (SMILES)	tested on	assay	test system	setting	scale	endpoint	value
CC(C)=CCC/C(C)=C\CCn1cc(CC(P(=O)(O)O)P(=O)(O)O)nn1	–	–	CD-1 mouse, lung	intravenous, 0.5 mg/kg, 168 h, single dose	–	concentration	not detected
CC[C@H](C)[C@H](NC(=O)[C@H](CCCCN)NC(=O)CNC(=O)[C@H](CC(C)C)NC(=O)[C@H](Cc1ccccc1)NC(=O)[C@H](CCCCN)NC(=O)[C@H](CO)NC(=O)[C@H](Cc1ccccc1)NC(=O)[C@H](Cc1c[nH]c2ccccc12)NC(=O)[C@H](CCC(N)=O)NC(=O)[C@@H](NC(=O)[C@H](Cc1ccccc1)NC(=O)CCCCCNC(=O)CN1CCN(CC(=O)O)CCN(CC(=O)O)CCN(CC(=O)O)CC1)C(C)C)C(=O)N[C@@H](CCC(=O)O)C(=O)N1CCC[C@H]1C(=O)N[C@@H](CC(=O)O)C(=O)N[C@H](C(=O)N[C@@H](CO)C(=O)N[C@@H](CCC(N)=O)C(=O)N[C@H](C(=O)N[C@@H](CCC(N)=O)C(=O)N[C@@H](CC(=O)O)C(=O)N1CCC[C@H]1C(=O)N[C@@H](CC(N)=O)C(=O)N[C@@H](CC(=O)O)C(=O)N[C@@H](CCC(N)=O)C(=O)N[C@@H](Cc1ccc(O)cc1)C(=O)N[C@@H](CCC(=O)O)C(=O)N1CCC[C@H]1C(=O)N[C@@H](Cc1ccccc1)C(=O)O)C(C)C)C(C)C [copper-64 labelled]	–	dynamic PET	mouse both sexes, CT26 tumour, untreated, tumour	intravenous, 100 µCi/mouse, 210 s	–	SUVmean	1.02 SUV
CCCCCCCCCCCC(=O)C(C)C(=O)N1CCC[C@H]1C(=O)NC(C)(C)C(=O)NC(C)(C)C(=O)NC(C)(C)C(=O)N[C@](C)(CC)C(=O)NCCC(=O)N[C@@H](C)C(=O)N[C@](C)(CC)C(=O)N[C@@H](C)C(=O)N[C@@H](CC(C)C)C(=O)N[C@](C)(CC)C(=O)NCCC(=O)N[C@@H](C)C(=O)N[C@](C)(CC)C(=O)NCCC(=O)N[C@@H](C)C(=O)NC(C)(C)C(=O)NC(C)(C)C(=O)NC(C)(C)C(=O)N[C@@H](C)C(=O)N[C@@H](CC(=O)O)C(=O)O (stereo partly drawn)	–	LC-MS	50% pooled human serum in Tris-HCl buffer	40 µM, 1 h, pH 7.5, 37 °C	baseline: 0 h value	remaining intact peptide	48%
CC(C)[C@H](NC(=O)[C@@H](NC(=O)[C@H](CCCNC(=N)N)NC(=O)[C@H](CCCNC(=N)N)NC(=O)[C@H](CCCNC(=N)N)NC(=O)[C@H](CCC(N)=O)NC(=O)[C@H](CCCNC(=N)N)NC(=O)[C@H](CCCNC(=N)N)NC(=O)[C@H](CCCCN)NC(=O)[C@H](CCCCN)NC(=O)[C@H](CCCNC(=N)N)NC(=O)CN)[C@@H](C)O)C(=O)N[C@H](C(=O)N[C@@H](CO)C(=O)N1CCC[C@H]1C(=O)O)[C@@H](C)O	–	–	ICR mice, male, lung	intranasal, 10 mg/kg daily, 4 weeks	–	organ weight	0.386 ± 0.036 g
COc1cc2c(cc1O)C(CCc1ccc(Cl)cc1)N([11CH3])CC2 (stereo not drawn)	–	PET	Sprague-Dawley rat, male, brain	intravenous, 20.5 MBq, no carrier added	–	peak brain radioactivity	0.7 %ID/mL
CN(C)C(=O)c1cncc(-c2cnc3[nH]cc(-c4cc(OS(=O)(=O)F)ccc4C(F)(F)F)c3c2)c1	–	HPLC	acetonitrile/water/DMSO	50 µM, 37 °C, DIPEA 20 eq, with: N-α-acetyl-lysine	–	reactivity half-life	> 24 h
CC(C)C[C@H](NC(=O)[C@H](Cc1ccc(O)cc1)NC(=O)[C@H](Cc1c[nH]cn1)NC(=O)[C@H](CC(N)=O)NC(=O)[C@H](CC(C)C)NC(=O)[C@H](C)NC(=O)[C@H](CC(C)C)NC(=O)CNC(=O)CNC(=O)[C@@H](NC(=O)[C@@H](NC(=O)[C@H](CCCCN)NC(=O)CNC(=O)[C@@H](NC(=O)[C@H](CCCCN)NC(=O)[C@H](CCCCN)NC(=O)[C@H](C)NC(=O)[C@H](CCCCN)NC(=O)[C@H](CCCNC(=N)N)NC(=O)[C@H](Cc1ccccc1)NC(=O)[C@H](Cc1c[nH]c2ccccc12)NC(=O)[C@H](CC(=O)O)NC(=O)[C@H](CCCCN)NC(=O)[C@H](Cc1c[nH]c2ccccc12)NC(=O)CN)C(C)C)[C@@H](C)O)C(C)C)C(N)=O	–	–	zebrafish embryos 28 hpf, E3 medium	1 h	–	acute toxic concentration	5 µM
CC[C@H](C)[C@H](NC(=O)[C@H](Cc1c[nH]c2ccccc12)NC(=O)c1ccccc1)C(=O)N[C@@H](CCCNC(=N)N)C(=O)N[C@@H](Cc1ccc(O)cc1)C(=O)N[C@@H](CCCCN)C(=O)N[C@@H](Cc1c[nH]c2ccccc12)C(=O)N1CCC[C@@H]1C(=O)N[C@@H](CCCNC(=N)N)C(=O)N[C@@H](CCCCN)C(=O)N[C@@H](CCCCN)C(=O)N[C@H](C(=O)N[C@@H](CCCNC(=N)N)C(=O)N[C@@H](Cc1ccc(O)cc1)C(=O)N[C@@H](Cc1c[nH]c2ccccc12)C(=O)N[C@H](C(=O)NCC(=O)N1CCC[C@H]1C(N)=O)[C@@H](C)O)C(C)C	–	circular dichroism	phosphate buffer	30 µM, pH 6.5	–	melting temperature	35.5 °C
CCn1ccc(-c2cc([C@@H](C)NC(=O)c3cc(N4CC5CCC(C4)N5C)ccc3C)c3ccccc3n2)n1	Vero E6	–	–	3.906 µM	–	viability	100% and 91% and 96.6%
CCc1nn(C)c2nc(-c3ccc(C(=O)O)cc3)nc(NCc3ccccc3)c12	–	–	NSG mice	dose not given, day 3	–	body weight	21.7 g and 20.3 g and 22.8 g and 20.2 g
CC(C)[C@@H]1NC(=O)CNC(=O)[C@H](CC(N)=O)NC(=O)[C@H](CCCNC(=N)N)NC(=O)[C@H](Cc2ccc(O)cc2)NC(=O)[C@H](C(C)C)NC(=O)[C@@H](NC(=O)[C@@H](NC(=O)[C@H](CC(N)=O)NC(=O)[C@H](Cc2c[nH]c3ccccc23)NC(=O)[C@H](C)NC(=O)[C@H](Cc2ccccc2)NC(=O)CNC(=O)[C@H](CCCCN)NC(=O)[C@H](Cc2ccccc2)NC(=O)[C@H](Cc2ccccc2)NC(=O)[C@H](CCCCN)NC(=O)OCC2c3ccccc3-c3ccccc32)C(C)C)CSSC[C@@H](C(=O)N[C@@H](Cc2c[nH]cn2)C(=O)N[C@@H](CCCNC(=N)N)C(=O)N[C@@H](CCCNC(=N)N)C(=O)N[C@@H](C)C(=O)N[C@@H](CC(N)=O)C(N)=O)NC(=O)[C@H](C(C)C)NC(=O)[C@H](CCCNC(=N)N)NC1=O	–	–	ICR mice, serum	intraperitoneal, 10 mg/kg, day 5	–	AST	26 ± 0.76 IU/L
Cc1ccc(OC[C@@H]2CCN2C)cc1C(=O)N[C@H](C)c1cc(-c2cnn(C)c2)nc2ccccc12	African green monkey cells	–	–	62.5 µM	–	viability	91.1%
Cc1cc(Nc2nc(C[C@@]3(C(=O)O)CCN(Cc4cccc(Cl)c4F)[C@H](C)C3)cc(C)c2F)n[nH]1	–	–	mouse, IMR-32 xenograft, plasma	oral, 2.5 mg/kg once daily	–	Cmax	3940 ng/mL
O=C1NC2(CC2)COc2ncc(F)cc2[C@H]2COCCN2c2ccn3ncc1c3n2	–	–	Sprague-Dawley rat, male, kidneys	oral, 2.5 mg/kg/day, 4 weeks, end of treatment	–	organ-to-brain weight ratio	147 ± 11.7%
CCN(CCCCOc1ccc(CCC(=O)N2CCC(Cc3ccccc3)CC2)cc1OC)Cc1ccccc1	–	–	Sprague-Dawley rats, both sexes, faeces	oral gavage, 25 mg/kg, 12 to 24 h	–	excreted amount	22300 ± 7120 ng

Repeated from above:
Structure (SMILES)	tested on	assay	test system	setting	scale	endpoint	value
COc1cc2c(cc1O)C(CCc1ccc(Cl)cc1)N([11CH3])CC2 (stereo not drawn)	–	PET	Sprague-Dawley rat, male, brain	intravenous, 20.5 MBq, no carrier added	–	peak brain radioactivity	0.7 %ID/mL
CN(C)C(=O)c1cncc(-c2cnc3[nH]cc(-c4cc(OS(=O)(=O)F)ccc4C(F)(F)F)c3c2)c1	–	HPLC	acetonitrile/water/DMSO	50 µM, 37 °C, DIPEA 20 eq, with: N-α-acetyl-lysine	–	reactivity half-life	> 24 h
